Assay results gathered from unrelated publications.
Each numbered part is a random draw from the data of one study; scales do not carry over between parts.

Set 1 — technique: Spec-seq; molecule type: double-stranded DNA, one strand shown; medium: in vitro; concentration: not given; setting: whole probe, mean of replicates; reference: not given; reading: lower = stronger binding; constant ends, left off below: GAGTCGTCTCGTCAGCAC … CCGTAGAGCACTCAGGTC
Target: POU, POU domain (Salpingoeca helianthica)
Construct (chain): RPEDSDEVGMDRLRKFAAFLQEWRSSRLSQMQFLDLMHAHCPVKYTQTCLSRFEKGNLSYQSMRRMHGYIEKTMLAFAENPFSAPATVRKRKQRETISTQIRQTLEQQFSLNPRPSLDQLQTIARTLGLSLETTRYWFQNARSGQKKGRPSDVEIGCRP
Sequence	relative binding energy [ln ratio]
ACATTAAT	-0.02
ATGCCTAC	1.06
GTTTTAAT	-0.179
ATGTAGAT	1.15
CTCTTAAT	0.187
ATGCGACT	1.05
TAGATAAT	0.124
ATGGATAT	1.04
ACAGTAAT	0.592
ATGCAATA	1.36
TTCGTAAT	0.242
ATGCTATA	1.2
TGTTTAAT	-0.482
ATGCGCCA	1.12
TAGCTAAT	0.365
ATGCAGAC	1.49
ATGCACAT	1.34

Set 2 — technique: protein-binding microarray; molecule type: double-stranded DNA, one strand shown; medium: in vitro; concentration: 250 nM; setting: 60-bp whole probe; added: salmon DNA 0.4 mg/ml; reference: random background probes; reading: higher = stronger binding; constant ends, left off below: GCCTAGCAC … GTCTTGATTCGCTTGACGCTGCTG
Target: Interferon regulatory factor 5, full length, phosphomimetic (IRF5, Homo sapiens, UniProt Q13568-2, residues 1-514, K96S/S451D/S453D/S456D/S462D)
Sequence	log fluorescence [z-score]
TTTTGCTTTCATTTATTTACGTGCTAG	8.58
GTAGAACTGAGTCTCGATTAGTGCTAG	0.328
GCAGGGCTCTCTTCTGCTTCCGTGCTA	-0.572
TTAGATTTCAGTCTAGATTAGTGCTAG	2.55
GACGGTGTCCTTCTCCTGACGTGCTAG	-0.338
TTAGATATCGGGCATCGATTAGTGCTA	1.71
TTAGGTATCCTTTTCCTTTGGTGCTAG	0.421
AACGGTATCCTTATCCTGACGTGCTAG	0.289
TTAGGTTTGGGTATCGGTTAGTGCTAG	4.61
TTAGGACTGGGACTGGATTAGTGCTAG	-0.436
GACGATGTCGGGTATCGAGACGTGCTA	0.659
GACGGACTGCATCTCCTGACGTGCTAG	-0.502
TCACAAAAATGATTGGTACTGTGCTAG	0.00481
TTAGATTTCGGGTATCGATTCGTGCTA	7.02
TCACTAATCTCACTCTGACTGTGCTAG	0.44
TCAGGAGTCAACTCTCTAACTGTGCTA	-0.343
GACGATTTCCTTCTCCTGACGTGCTAG	0.477
CTATATTAGGGAAGTGTGTTGTGCTAG	-0.21
TGTGTTATTAAATTTTCACGGGTGCTA	0.32
TTAGATATCCGGTATCGATTAGTGCTA	4.89
TTAGGACTGGGCTTCGGTTAGTGCTAG	0.201

Set 3 — technique: RNA Bind-n-Seq; molecule type: RNA; medium: in vitro; concentration: 365 nM; reference: no-protein control; reading: higher = stronger binding
Target: RNA binding protein fox-1 homolog 2, RRM domain, GST-SBP tag (RBFOX2, Homo sapiens, UniProt O43251-10, residues 100-194)
Setting: natural RNA segment, single round, ends assumed
Constant ends, left off below: GGGAGUUCUACAGUCCGACGAUC … UGGAAUUCUCGGGUGCCAA
Construct (chain): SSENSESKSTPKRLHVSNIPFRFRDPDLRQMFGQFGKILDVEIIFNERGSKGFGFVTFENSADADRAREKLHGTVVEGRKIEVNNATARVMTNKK
Sequence	RBNS enrichment (R)
GCUUUACUAUGGAGCCUGCAUAUGAAGCCACCUCUGGCUUCUACAGAAGGAGGCCCUGGCUGCUCCAGCUUGGGUGGAGCCUACUGAAAUGUGGAAACUGUGUAUCUUAU	0.335
AGACGGGAAGAUCAGGAGUUCAAGGUCUUAGCUACAUAGUAAGUUUGAAGCCAGCCUGGCUACUUGAGACUCUGUCUCACAAAAGCAAAUAAACAAAGGAUUAUGCUUAA	0.426
AUUUGUACCAGUUUGUAUUAAAGUCAGUACUACCAGCACUUUGCCAAAACUACGGAUGUCAGAGGGACCUGUUUCUAGAGUGAGUCCCAAUUACAUCAAAGGGCAACCUG	0.323
UCCAAACAUUGGAAACUUUCAGAUCAUAAGGCAGAAUUUAGUAAUUUUGUGCUUCUGUUAAUGUCUAGCAUUUUAAACAUAGGAUAACAUUGUUUUGGACACUGGAAUAA	0.785
GUGCUGUUUUAAUUACCUAACGUCUGUGUAACUGCUGAUUUGAGUAGUGAUUAGCAUUUAGAUAAUGUAACAGGAUUUUAGAGAGCACUUUGAAAGAUAACAUUUUAUUA	0.337
AGGUCUUCCAUGUUUGAGGAAAUGUCUUGCACUAUUGCAUAUAUUUUGUGGACACAGAUUUUUGUAGUUUCCAUUUUGGAAGGCUAAAGUGUUUUGUUUGUUUGAAACAG	1.37
UACCACGUUAGGAGGGUGAGCAGCCCUCUGCUAUGUGCCCAGGACCCUGCCUGGACAUUGCAUUUCCCCAUUUAUGGUGCUCCGUAUUCUGGCAUUAUGCAGCAGCCUCA	0.405
CUGUACCCAUGAACUCCCAGUUUGCGAAUUAUAGAGACAAUCUAUUUUGUUACUUGCACUUGUUAUUCGAACCACUGAGAGCGAGAUGGGAAGCAUAGAUAUCUAUAUUU	0.527
AGCCUGGCAGGGCACAGUUUCUAGAGGGCCCGUCCCCAGCCCGGGCCGUCCAUCCUCGCAUUGCUGUUGAAUGGUGAGCACGUGACCAUGCCGACCACAAAGGUGUCUGC	1.48
ACAUCUUUCUUCUCCAUCACUCCACGCCUCCAUCCAAGCUCAGUUUCCACUCGCCCACCAGAAGCAGCUCUAGUCACCUGCACAACCGCUUCCAUGACCUUGGAGGUAUA	0.486
CCCUUCCUGGGACUCGCCCUCAUCCUCUUCCUGCUCCCCUUCCUGGGGUGCAGCCUAAAAGGACCUAUGUCCUCACACCAUUGAAACCACUAGUUCUGUCCCCCCAGGAG	0.211
AAGCACAAAGGCCAGCGUGACAGCAGCGCCAUGCUCAUCCCCCUCACAGGACACUUCACUGCCAUUUUCUAUGCACAUGGAAGAAUAAUAAAUGUGGAAAUUUCAUCCUG	0.438

Set 4 — technique: RNA Bind-n-Seq; molecule type: RNA; medium: in vitro; concentration: 1 µM; setting: whole 134-nt RNA, ends assumed; added: 150 mM KCl; reference: input library; reading: higher = stronger binding
Target: Ras GTPase-activating protein-binding protein 1, C-terminal RGG region (G3BP1, Homo sapiens, UniProt Q13283)
Sequence of UniProt Q13283 (whole entry, looked up): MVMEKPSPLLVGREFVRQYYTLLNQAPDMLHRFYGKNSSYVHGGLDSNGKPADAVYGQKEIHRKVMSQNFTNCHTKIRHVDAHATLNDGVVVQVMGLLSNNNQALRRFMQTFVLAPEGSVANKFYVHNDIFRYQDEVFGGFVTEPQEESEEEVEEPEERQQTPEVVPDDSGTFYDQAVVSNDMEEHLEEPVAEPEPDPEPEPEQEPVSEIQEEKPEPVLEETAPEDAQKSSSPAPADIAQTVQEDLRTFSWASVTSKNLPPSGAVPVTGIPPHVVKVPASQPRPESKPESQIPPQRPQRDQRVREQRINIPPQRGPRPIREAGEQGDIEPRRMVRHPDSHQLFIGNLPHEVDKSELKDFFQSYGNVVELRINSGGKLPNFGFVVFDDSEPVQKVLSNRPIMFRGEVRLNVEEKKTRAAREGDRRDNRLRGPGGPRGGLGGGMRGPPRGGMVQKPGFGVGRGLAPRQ
Constant ends, left off below: GGGAGUUCUACAGUCCGACGAUC … UGGAAUUCUCGGGUGUCAAGG
Sequence	log2 enrichment
UCCUGUGCUACACAUCGUAUGUACCGAAUCGGGCCCCCGGGGCCCCCGGGGCCCCCGGGAAAGUAUUAUGUUACGCCGUUCGGAUCUGCA	-1.79
UGCCUGCUCCGGGCCCCGUGCUGGCGCCUACGCACCUGCAGACAGAGCUGGUGCUGAGGUGCCAGAAGGAGACCGACUGUGACCUCUGUC	-1.19
CCUGUGCUACACAUCGUAUGUACCGAAUCGGGGUUUUUUUGGGGAGGGGUUUUUUUGGGGAAAGUAUUAUGUUACGCCGUUCGGAUCUGC	0.871
GCAGGAAGUCAAAACAAAUGGAAAUGCUUCGGAUAGUGGCAGGGGUGGGGGUUGCUAAGGAAAGGGUGGGAUGGGAGUGGGUAAAGAGUU	1.72
GUCCUGUGCUACACAUCGUAUGUACCGAAUCGGGUUUUUGGGGUUUUUGGGUUUUUGGAAAGUAUUAUGUUACGCCGUUCGGAUCUGCAC	-0.626
CACAGACAACACGCACCCACACAGACACAGAGGGAAGGGGUUGGGAUGGGGACAGGGUGCACAGCAGGGCGGGGUACGACCCCAGCCCCU	-0.441
UGGGAGGUGGAUUUUGUUUAUUUUUUUAGCUCAUUUCCAGGGGUGGGAAUUUUUUUUUAAUAUGUGUCACGAAUAAAGUUGUUUUUGAAA	3.45
CACAGACAACACGCACCCACACAGACACAGAGGGAAGGGGUUGGGAUAGGGACAGGGUGCACAGCAGGGCGGGGUAGGACCCCAGCCCCU	-0.813
AGUCCUGUGCUACACAUCGUAUGUACCGAAUCGGGGAAAGGGGUUUUUGGGGAGGGGAAAGUAUUAUGUUACGCCGUUCGGAUCUGCACU	2.41
CCUCAAGUCCUGUGCUACACAUCGUAUGUACCGAAUCGGAAAAAGGUGGUGGAAAGUAUUAUGUUACGCCGUUCGGAUCUGCACUUCCAG	-0.643
AAGUCCUGUGCUACACAUCGUAUGUACCGAAUCGGGAAAAGGGGAAAAGGAAAAGGAAAGUAUUAUGUUACGCCGUUCGGAUCUGCACUU	-1.63
UGGGAGGUGGAUUUUGUUUAUUUUUUUAGCUCAUUUCCAGGGGUGGGAAUUUUUUUUUAAUAUGUGUCAUGAAUAAUGUUGUUUUUGAAA	1.7
UCAAGUCCUGUGCUACACAUCGUAUGUACCGAAUCGGUUUGGGGUUUGGUUUGGAAAGUAUUAUGUUACGCCGUUCGGAUCUGCACUUCC	-0.873
GGUAAACGCCCUGCAGAAGAUAUGGAAGAGGAACAAGCAUUUAAAAGAUCUAGAAACACUGAUGAGAUGGUUGAAUUACGCAUUCUGCUU	-1.07

Set 5 — technique: protein binding microarray; molecule type: double-stranded DNA, one strand shown; medium: in vitro; concentration: not given; reference: not given; reading: higher = stronger binding
Target: Histone acetyltransferase KAT6A, both winged helices, GST fusion (KAT6A, Homo sapiens, UniProt Q92794, residues 1-181)
Setting: 8-mer, flanks averaged, mean of 2 arrays, mostly near background
Construct (chain): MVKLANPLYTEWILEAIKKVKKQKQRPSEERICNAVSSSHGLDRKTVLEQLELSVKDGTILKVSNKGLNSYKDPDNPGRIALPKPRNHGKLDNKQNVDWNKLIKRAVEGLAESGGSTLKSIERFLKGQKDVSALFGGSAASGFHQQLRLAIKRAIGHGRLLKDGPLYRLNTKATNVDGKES
Sequence	E-score
AGTTGCGA	-0.0788
CAGGACCG	0.0416
GGCAGGCC	-0.0364
ACAGGCGG	0.154
TATATCCA	-0.0256
ATAAAACG	0.103
CCCAAGAC	-0.176
GCTTGCAC	-0.0495
CGGATCTA	0.0504
AAACTATA	-0.113
AACACGGA	0.241
TACAAACA	-0.0387
CCGTGACA	0.239
CGTCTGGC	0.0575
AAACCACT	-0.0699
CATGGGCA	-0.0561
GACACATC	-0.11
ACCAACGT	0.00057
ATCCTATG	-0.19
CGGGGCAG	0.166
ACCCTGGA	-0.211
GAGGGCAC	-0.102
ACAGCATG	-0.027
CTCGACAG	-0.0973
CGAAGGAG	-0.0304
